Measurements of several laboratories.
Compare with care: the assays were run in different laboratories. ± gives the spread as reported.

`N=C(N)NCCC[C@@H]1NC(=O)[C@H](CCCCNC(=O)c2ccc(CNC34CNCCNCC(NCc5ccc(C(=O)NCCCC[C@@H]6NC(=O)[C@@H](Cc7ccc(O)cc7)NC(=O)[C@H](CC(=O)O)NC(=O)CNC(=O)[C@H](CCCNC(=N)N)NC6=O)cc5)(CNCCNC3)CNCCNC4)cc2)NC(=O)[C@@H](Cc2ccc(O)cc2)NC(=O)[C@H](CC(=O)O)NC(=O)CNC1=O` [copper-64 labelled] has a tumour uptake of 6.22 ± 1.42 %ID/g (microPET; female athymic nude mouse, U-87 MG xenograft, U-87 MG tumour; intravenous, 4 h).
For `N=C(N)NCCC[C@@H]1NC(=O)[C@H](CCCCNC(=O)CC[C@H](NC(=O)CCOCCOCCOCCOCCNC(=O)CN2CCN(CC(=O)O)CCN(CC(=O)O)CCN(CC(=O)O)CC2)C(=O)NCCCC[C@@H]2NC(=O)[C@@H](Cc3ccccc3)NC(=O)[C@H](CC(=O)O)NC(=O)CNC(=O)[C@H](CCCNC(=N)N)NC2=O)NC(=O)[C@@H](Cc2ccccc2)NC(=O)[C@H](CC(=O)O)NC(=O)CNC1=O` [indium-111 labelled], the tumour uptake was 6.1 %ID/g (female athymic nude mouse, U-87 MG tumour; intravenous, 3 µCi, 0.5 h, U-87 MG glioma xenograft).
`CSCC[C@H](NC(=O)[C@H](CC(C)C)NC(=O)[C@H](Cc1cnc[nH]1)NC(=O)CNC(=O)[C@@H](NC(=O)[C@H](C)NC(=O)[C@H](Cc1c[nH]c2ccccc12)NC(=O)[C@H](CCC(N)=O)NC(=O)CCCCCCCNC(=O)CN1CCN(CC(=O)O)CCN(CC(=O)O)CCN(CC(=O)O)CC1)C(C)C)C(N)=O` [lutetium-177 labelled] — result for “tumour retention ratio”: 1.7 to 2.8 (mouse PC-3 xenograft, tumour; reference: 177Lu-labelled over 111In-labelled).
Under “tumour to muscle ratio”, `CC(C)C[C@H](NC(=O)[C@@H]1CCCN1C(=O)[C@H](CCCCN)NC(=O)[C@@H](N)CO)C(=O)N1CCC[C@H]1C(=O)N[C@@H](CCC(=O)O)C(=O)N[C@H](C(=O)N[C@H](C(=O)N[C@@H](CC(=O)O)C(=O)N[C@@H](CCC(=O)O)C(=O)N[C@@H](Cc1ccc(O)cc1)C(=O)N[C@@H](Cc1cn(CCOCCOCCOCCNC(=O)CCc2ccc(O)c(CN(CCN(CC(=O)O)Cc3cc(CCC(=O)NCCCC[C@H](NC(=O)N[C@@H](CCC(=O)O)C(=O)O)C(=O)O)ccc3O)CC(=O)O)c2)nn1)C(=O)O)[C@@H](C)O)C(C)C` [gallium-68 labelled] is recorded as 39.3 (NMRI nu/nu mouse, LNCaP xenograft; 10 MBq, high molar activity; reference: tumour over muscle).
`N=C(N)NCCC[C@@H]1NC(=O)[C@H](CCCCNC(=O)CNC(=O)CNC(=O)CNC(=O)c2ccc(NN=Cc3ccccc3S(=O)(=O)O)nc2)NC(=O)[C@@H](Cc2ccccc2)NC(=O)[C@H](CC(=O)O)NC(=O)CNC1=O` [technetium-99m labelled] — result for “tumour to tissue ratio”: 1.95 ± 0.62 (athymic nu/nu mouse, female, U-87 MG glioma xenograft; intravenous, 30 min; reference: tumour over liver).
With `N=C(N)NCCC[C@@H]1NC(=O)[C@H](CCCCNC(=O)CCOCCOCCOCCOCCNC(=O)CC[C@H](NC(=O)CCOCCOCCOCCOCCNC(=O)CC[C@H](NC(=O)CN2CCN(CC(=O)O)CCN(CC(=O)O)CCN(CC(=O)O)CC2)C(=O)NCCOCCOCCOCCOCCC(=O)N[C@@H](CCC(=O)NCCOCCOCCOCCOCCC(=O)NCCCC[C@@H]2NC(=O)[C@@H](Cc3ccccc3)NC(=O)[C@H](CC(=O)O)NC(=O)CNC(=O)[C@H](CCCNC(=N)N)NC2=O)C(=O)NCCOCCOCCOCCOCCC(=O)NCCCC[C@@H]2NC(=O)[C@@H](Cc3ccccc3)NC(=O)[C@H](CC(=O)O)NC(=O)CNC(=O)[C@H](CCCNC(=N)N)NC2=O)C(=O)NCCOCCOCCOCCOCCC(=O)NCCCC[C@@H]2NC(=O)[C@@H](Cc3ccccc3)NC(=O)[C@H](CC(=O)O)NC(=O)CNC(=O)[C@H](CCCNC(=N)N)NC2=O)NC(=O)[C@@H](Cc2ccccc2)NC(=O)[C@H](CC(=O)O)NC(=O)CNC1=O` [indium-111 labelled] the tumour uptake was 10.5 %ID/g (female athymic nude mouse, U-87 MG tumour; intravenous, 3 µCi, 0.5 h, U-87 MG glioma xenograft).
Under “tumour to tissue ratio”, `N=C(N)NCCC[C@@H]1NC(=O)[C@H](CCCCNC(=O)CNC(=O)CNC(=O)CNC(=O)CC[C@H](NC(=O)c2ccc(NN=Cc3ccccc3S(=O)(=O)O)nc2)C(=O)NCC(=O)NCC(=O)NCC(=O)NCCCC[C@@H]2NC(=O)[C@@H](Cc3ccccc3)NC(=O)[C@H](CC(=O)O)NC(=O)CNC(=O)[C@H](CCCNC(=N)N)NC2=O)NC(=O)[C@@H](Cc2ccccc2)NC(=O)[C@H](CC(=O)O)NC(=O)CNC1=O` [technetium-99m labelled] is recorded as 29 ± 4.68 (athymic nu/nu mouse, female, U-87 MG glioma xenograft; intravenous, 120 min; reference: tumour over blood).
`CC(C)C[C@H](NC(=O)C[C@H](O)[C@H](CC(C)C)NC(=O)[C@H](Cc1c[nH]cn1)NC(=O)CNC(=O)[C@@H](NC(=O)[C@H](C)NC(=O)[C@H](Cc1c[nH]c2ccccc12)NC(=O)[C@H](CCC(N)=O)NC(=O)[C@@H](Cc1ccccc1)NC(=O)c1ccc(NC(=O)CNC(=O)CCC(C(=O)O)N2CCN(CC(=O)O)CCN(CC(=O)O)CC2)cc1)C(C)C)C(N)=O` (some centres unmarked) [copper-64 labelled] gave a tumour uptake of 3 ± 0.76 %ID/g (PET imaging; mouse, PC-3 xenograft; intravenous, 1.5 h, 64Cu-labelled).

Repeated from above:
With `N=C(N)NCCC[C@@H]1NC(=O)[C@H](CCCCNC(=O)CCOCCOCCOCCOCCNC(=O)CC[C@H](NC(=O)CCOCCOCCOCCOCCNC(=O)CC[C@H](NC(=O)CN2CCN(CC(=O)O)CCN(CC(=O)O)CCN(CC(=O)O)CC2)C(=O)NCCOCCOCCOCCOCCC(=O)N[C@@H](CCC(=O)NCCOCCOCCOCCOCCC(=O)NCCCC[C@@H]2NC(=O)[C@@H](Cc3ccccc3)NC(=O)[C@H](CC(=O)O)NC(=O)CNC(=O)[C@H](CCCNC(=N)N)NC2=O)C(=O)NCCOCCOCCOCCOCCC(=O)NCCCC[C@@H]2NC(=O)[C@@H](Cc3ccccc3)NC(=O)[C@H](CC(=O)O)NC(=O)CNC(=O)[C@H](CCCNC(=N)N)NC2=O)C(=O)NCCOCCOCCOCCOCCC(=O)NCCCC[C@@H]2NC(=O)[C@@H](Cc3ccccc3)NC(=O)[C@H](CC(=O)O)NC(=O)CNC(=O)[C@H](CCCNC(=N)N)NC2=O)NC(=O)[C@@H](Cc2ccccc2)NC(=O)[C@H](CC(=O)O)NC(=O)CNC1=O` [indium-111 labelled] the tumour uptake was 10.5 %ID/g (female athymic nude mouse, U-87 MG tumour; intravenous, 3 µCi, 0.5 h, U-87 MG glioma xenograft).
